Results pooled from the literature.
Parts stem from different laboratories: compare values within a part only. Changes are numbered by the printed parent chain.

Series 1 — method: RNA Bind-n-Seq; molecule type: RNA; sample: in vitro; tested at: 1 µM; notes: whole 134-nt RNA, ends assumed; added: 150 mM KCl; reference: input library; direction: higher = stronger binding
Target: Ras GTPase-activating protein-binding protein 1, C-terminal RGG region (G3BP1, Homo sapiens, UniProt Q13283)
Chain of UniProt Q13283 (whole entry, looked up): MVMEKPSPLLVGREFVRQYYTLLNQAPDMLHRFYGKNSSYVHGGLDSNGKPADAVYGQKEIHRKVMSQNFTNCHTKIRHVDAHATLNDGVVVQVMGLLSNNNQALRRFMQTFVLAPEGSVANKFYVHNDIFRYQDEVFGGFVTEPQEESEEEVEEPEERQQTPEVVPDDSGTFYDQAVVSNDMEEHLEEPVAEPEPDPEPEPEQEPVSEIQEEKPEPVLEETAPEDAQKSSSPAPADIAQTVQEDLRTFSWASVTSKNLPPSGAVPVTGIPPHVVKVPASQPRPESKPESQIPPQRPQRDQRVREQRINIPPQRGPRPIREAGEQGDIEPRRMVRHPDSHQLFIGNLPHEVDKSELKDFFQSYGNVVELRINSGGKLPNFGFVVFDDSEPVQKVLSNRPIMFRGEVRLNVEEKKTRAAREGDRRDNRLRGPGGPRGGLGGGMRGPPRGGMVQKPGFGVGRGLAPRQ
The log2 enrichment of `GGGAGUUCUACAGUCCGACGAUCAAGUCCUGUGCUACACAUCGUAUGUACCGAAUCGGUUUUGGGUUUUGGGGUUUUGGGAAAGUAUUAUGUUACGCCGUUCGGAUCUGCACUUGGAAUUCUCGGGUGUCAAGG` is reported as -1.02.
`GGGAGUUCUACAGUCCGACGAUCAUAGAUUGCGCAGUCUCUUUGUGGAGAGGACUUGAUCAUUAAAGGAAUCAGCGUUCAUAUAUCCAAUGCCGAACCUAAGCACAAUAGCAAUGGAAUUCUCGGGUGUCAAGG` gave a log2 enrichment of -0.559.
`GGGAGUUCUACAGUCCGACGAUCAGUCCUGUGCUACACAUCGUAUGUACCGAAUCGGGAAAGGGAAAAAAAGGGUUUGGGAAAGUAUUAUGUUACGCCGUUCGGAUCUGCACUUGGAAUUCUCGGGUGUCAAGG` has a log2 enrichment of 0.112.
`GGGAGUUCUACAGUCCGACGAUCAGUCCUGUGCUACACAUCGUAUGUACCGAAUCGGAAAAAAAGGUUUUUUUGGUUUGGAAAGUAUUAUGUUACGCCGUUCGGAUCUGCACUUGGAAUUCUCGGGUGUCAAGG` has a log2 enrichment of -2.55.
`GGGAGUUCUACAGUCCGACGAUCUCCUGUGCUACACAUCGUAUGUACCGAAUCAAAUUUUUUUAAACCCCCAAAUUUUUAAAAAAGUAUUAUGUUACGCCGUUCGGAUCUGCAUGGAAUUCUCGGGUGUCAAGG` gave a log2 enrichment of -0.265.
`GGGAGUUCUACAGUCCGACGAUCUGUGCUACACAUCGUAUGUACCGAAUCGGGGUUUUUUUGGGGUUUUUGGGGUUUUUUUGGGGAAAGUAUUAUGUUACGCCGUUCGGAUCUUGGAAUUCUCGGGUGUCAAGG` gave a log2 enrichment of -0.118.
`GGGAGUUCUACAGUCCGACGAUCACCAUGCAGGUGGGCAUCUUUGGGAAGUGGGGCAAGGGGGGGAUAGGGAUGGGGGUAACACUUUGGGAACAGGUGGUCCCAGGUCGUUUCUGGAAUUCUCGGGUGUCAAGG` has a log2 enrichment of 2.76.

Series 2 — method: DHFR PCA, deep sequencing; sample: yeast; added: (+)-ABA 2500 µM; reference: wild-type fitted maximum; direction: higher = stronger binding
Target: ABI1, truncated, D143A, DHFR fusion (Arabidopsis thaliana)
Notes: methotrexate growth selection, single substitutions
Parent: PYL1, truncated, DHFR fusion (Arabidopsis thaliana); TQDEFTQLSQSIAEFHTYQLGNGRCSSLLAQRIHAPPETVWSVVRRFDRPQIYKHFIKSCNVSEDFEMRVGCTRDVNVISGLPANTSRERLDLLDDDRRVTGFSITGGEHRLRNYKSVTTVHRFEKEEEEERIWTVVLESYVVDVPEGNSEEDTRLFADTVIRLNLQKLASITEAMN; partner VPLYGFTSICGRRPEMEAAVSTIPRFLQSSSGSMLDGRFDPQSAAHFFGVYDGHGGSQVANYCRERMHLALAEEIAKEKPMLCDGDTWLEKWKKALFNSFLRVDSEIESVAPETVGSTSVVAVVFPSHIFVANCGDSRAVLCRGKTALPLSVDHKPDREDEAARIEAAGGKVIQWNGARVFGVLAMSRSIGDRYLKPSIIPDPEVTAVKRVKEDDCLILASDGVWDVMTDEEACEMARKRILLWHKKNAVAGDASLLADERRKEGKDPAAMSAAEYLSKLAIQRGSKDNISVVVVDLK
`L93G`: “relative binding score” 79.1%.
For `Y141R`, “relative binding score” read 2.08%.
`H122S` — result for “relative binding score”: 95.4%.
Under “relative binding score”, `T120S` is recorded as 103%.
`K116S`: “relative binding score” 103%.
`T101E` — result for “relative binding score”: 59.7%.
`I172T`: “relative binding score” 96.7%.
For `D159A`, “relative binding score” read 84.5%.
For `N22K`, “relative binding score” read 103%.
Under “relative binding score”, `L112I` is recorded as 78.8%.
`R88C`: “relative binding score” 98.4%.
`E127G` — result for “relative binding score”: 102%.
`F103N` — result for “relative binding score”: 5.73%.
For `L94C`, “relative binding score” read 96.8%.
Under “relative binding score”, `N149T` is recorded as 89.1%.
Under “relative binding score”, `V44K` is recorded as 64.4%.
`K126G`: “relative binding score” 108%.
Under “relative binding score”, `C60G` is recorded as 59.3%.
Under “relative binding score”, `M176W` is recorded as 93.8%.
For `L28H`, “relative binding score” read 87.1%.
For `D144A`, “relative binding score” read 90.4%.
`D159R`: “relative binding score” 76.2%.

Series 3 — target: CCNF, cyclin fold, Cln2 fusion (human); method: yeast growth competition, sequencing; sample: yeast; notes: strong parent motif; reference: not given; direction: higher = stronger binding
Parent: BRCA2 docking peptide (human); PSIKRNLLNEFDR
Under “normalised enrichment score”, `R13Y` is recorded as 2.78.
For `L7T`, “normalised enrichment score” read 0.42.
`S2I` — result for “normalised enrichment score”: 5.4.
`L7I`: “normalised enrichment score” 1.51.
Under “normalised enrichment score”, `K4W` is recorded as 0.768.
For `R13A`, “normalised enrichment score” read 3.43.
`N9V` — result for “normalised enrichment score”: 4.1.
`S2E` — result for “normalised enrichment score”: 1.09.
`P1C`: “normalised enrichment score” 2.93.
`F11I`: “normalised enrichment score” 2.09.
For `F11H`, “normalised enrichment score” read 0.765.
`P1N` — result for “normalised enrichment score”: 3.95.
For `P1F`, “normalised enrichment score” read 3.06.

Series 4 — method: RNA Bind-n-Seq; molecule type: RNA; sample: in vitro; tested at: not given; reference: input RNA pool; direction: higher = stronger binding
Target: RING finger protein unkempt homolog, zinc fingers 1-6, GST-SBP tag (UNK, Homo sapiens, UniProt Q9C0B0, residues 30-357)
Chain of UniProt Q9C0B0 (30-357, looked up): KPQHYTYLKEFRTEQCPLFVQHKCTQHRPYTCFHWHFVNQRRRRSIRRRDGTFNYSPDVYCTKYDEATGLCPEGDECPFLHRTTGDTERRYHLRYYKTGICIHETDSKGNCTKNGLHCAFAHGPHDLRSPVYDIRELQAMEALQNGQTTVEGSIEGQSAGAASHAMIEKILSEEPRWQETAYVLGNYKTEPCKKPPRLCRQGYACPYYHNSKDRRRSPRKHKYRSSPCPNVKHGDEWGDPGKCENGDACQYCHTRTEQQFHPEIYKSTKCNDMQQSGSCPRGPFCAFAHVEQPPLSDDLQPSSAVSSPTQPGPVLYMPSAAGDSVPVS
Notes: RNA with constant flanks, human and mouse sites, ends assumed
For `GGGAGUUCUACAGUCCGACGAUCUAUCCAAAUCUAAACAUGAUUGAGACAUUCAUAUGUCAAGUGUGUGAGGAAACCCUUGCACAUAGUGUGGAUUCCCUUGAGCAGCUGACUGGAAUAAGGAUGCUUAGACACCUCACUAUGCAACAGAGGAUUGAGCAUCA`, the bound/input enrichment was 0.264 ratio.
`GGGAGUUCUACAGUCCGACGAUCUGCCCAUCUUAGGUUGCGGUGACCGAGGUUUGUGAGGUUUUCCUUGUUUGAGAUAAAUUCUAGCAUUUGCUUUAUCAUAUACUCCUCCUGUGUGAGCGUGGAAAAGUUUAGAAUUGUAUGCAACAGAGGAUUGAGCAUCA` gave a bound/input enrichment of 0.485 ratio.
With `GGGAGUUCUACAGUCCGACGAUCUUUGAAAGAAAAAUACCAUGUCUCUAAGCCAACUUUAAUUGCUUAAAAGACAUUUUUAUUUAGUUGAAAAAUCUAGUUUUUUUUGUAAACUGUAUCAAAUCUGUAUAUGUUGUAAUAAAACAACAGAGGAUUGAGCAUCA` the bound/input enrichment was 15.1 ratio.
`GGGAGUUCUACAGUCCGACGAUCUGUGUGUGUGCCAUCGUGCCUGGCUUAAAAUUGCUUAUUUUGAAUUCUUUUUAAAAAAAAAAAUCACAUUACAUUUUUCAGUCUUCUACUGCUUUAAAUUCCUGUUACCCUGAGAAGGUUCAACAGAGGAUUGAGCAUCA` gave a bound/input enrichment of 0.3 ratio.
`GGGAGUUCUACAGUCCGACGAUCACACUGGGUUCUUUGGAAGCUCUACUGGAAUUUCUGAAAACAUCAGAAGUGCCCUAUGCAGGAAUUAACAUUGGCCCAGUGCAUAAAAAAGAUGUUAUGAAGGCUUCAGUGAUGUUGGAACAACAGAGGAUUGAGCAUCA` has a bound/input enrichment of 0.135 ratio.
With `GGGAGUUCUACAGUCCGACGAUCAUAAUGGACAAGCUUUCAACUGACAAAACUGUGAAAGUCCUAAAUAUAUUGGAGAAGAAUAUUCAGGAUGGAUCAAAGCUUUCCACUUUGUUAAAUCAUAAUAAUGAUACUGAAGAAGAACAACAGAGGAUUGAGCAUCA` the bound/input enrichment was 0.222 ratio.
With `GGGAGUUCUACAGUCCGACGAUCCGCCUACUCGGGGGAGGAACUUAAAGGGCCGGCUGUUUCGGCGGCCGCGGGAUGCCCCUGCGCUGACCGCCAGGGGCAGGUGCCCGCCCGCGUAGACGCACCCGGCCUGACCCCGCGCCACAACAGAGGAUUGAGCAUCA` the bound/input enrichment was 0.168 ratio.
For `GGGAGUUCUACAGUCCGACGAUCGCGUGACUCGUAGGUGAGAACGCCGAGCCGCCGCCGCCGCCGAGAAGCCCUGUUAACGCUUUAGGGAGGAGAGUCUGGUGCCGACAAGAUGGCGGACGGGGAGCUGAACGUGGACAGCCUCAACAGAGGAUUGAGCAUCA`, the bound/input enrichment was 0.222 ratio.

Some of these lines once more (series 4):
`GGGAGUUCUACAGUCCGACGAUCUGCCCAUCUUAGGUUGCGGUGACCGAGGUUUGUGAGGUUUUCCUUGUUUGAGAUAAAUUCUAGCAUUUGCUUUAUCAUAUACUCCUCCUGUGUGAGCGUGGAAAAGUUUAGAAUUGUAUGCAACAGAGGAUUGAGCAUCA` gave a bound/input enrichment of 0.485 ratio.
With `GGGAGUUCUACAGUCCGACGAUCUUUGAAAGAAAAAUACCAUGUCUCUAAGCCAACUUUAAUUGCUUAAAAGACAUUUUUAUUUAGUUGAAAAAUCUAGUUUUUUUUGUAAACUGUAUCAAAUCUGUAUAUGUUGUAAUAAAACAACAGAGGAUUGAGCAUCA` the bound/input enrichment was 15.1 ratio.
`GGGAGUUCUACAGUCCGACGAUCUGUGUGUGUGCCAUCGUGCCUGGCUUAAAAUUGCUUAUUUUGAAUUCUUUUUAAAAAAAAAAAUCACAUUACAUUUUUCAGUCUUCUACUGCUUUAAAUUCCUGUUACCCUGAGAAGGUUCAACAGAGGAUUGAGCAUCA` gave a bound/input enrichment of 0.3 ratio.
